Measurements gathered from unrelated publications.
Every numbered part comes from another study and shows a few of its results, in no order. Changes are numbered by the printed parent chain.

Study 1 — method: RNA Bind-n-Seq; molecule type: RNA; matrix: in vitro; tested at: 1 µM; notes: whole 134-nt RNA, ends assumed; added: 150 mM KCl; baseline: input library; direction: higher = stronger binding
Target: Ras GTPase-activating protein-binding protein 1, C-terminal RGG region (G3BP1, Homo sapiens, UniProt Q13283)
Chain of UniProt Q13283 (whole entry, looked up): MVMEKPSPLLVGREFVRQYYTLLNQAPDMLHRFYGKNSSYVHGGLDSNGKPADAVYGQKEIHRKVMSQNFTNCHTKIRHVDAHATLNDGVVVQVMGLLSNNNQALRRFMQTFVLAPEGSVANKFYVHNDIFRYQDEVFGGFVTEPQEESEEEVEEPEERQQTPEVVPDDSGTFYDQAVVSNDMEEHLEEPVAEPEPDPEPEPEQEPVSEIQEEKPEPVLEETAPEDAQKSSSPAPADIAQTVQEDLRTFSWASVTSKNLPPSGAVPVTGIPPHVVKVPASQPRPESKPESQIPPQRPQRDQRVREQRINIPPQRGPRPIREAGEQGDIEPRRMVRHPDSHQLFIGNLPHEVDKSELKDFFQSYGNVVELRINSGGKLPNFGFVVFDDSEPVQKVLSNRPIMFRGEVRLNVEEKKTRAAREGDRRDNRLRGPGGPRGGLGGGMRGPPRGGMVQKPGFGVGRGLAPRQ
Constant ends, left off below: GGGAGUUCUACAGUCCGACGAUC … UGGAAUUCUCGGGUGUCAAGG
| Oligonucleotide | log2 enrichment |
| --- | --- |
| UGGCCCUGGUGGCAUGCGGGGAGGAAGAGGUGGCCUCAUGGAUCGUGGUGGUCCCGGUGGAAUAUUCAGAGGUGGCCGUGGUGGAGACAG | 1.46 |
| UCCUGUGCUACACAUCGUAUGUACCGAAUCGGUUUUUUGGGUUUUUUGGGUUUUUUGGGAAAGUAUUAUGUUACGCCGUUCGGAUCUGCA | -0.745 |
| UAACUUUAGAGGAGGAUCUGAUGGAUAUGGCAGUGGACGUGGAUAUGGGGAUGGCUAUAAUGGGUAUGGAGGAGGACCUGGAGGUGGCAA | -1.01 |
| UCAAGUCCUGUGCUACACAUCGUAUGUACCGAAUCGGGGUUGGGGUUGGGGUUGGAAAGUAUUAUGUUACGCCGUUCGGAUCUGCACUUC | 0.251 |
| UCCUCAAGUCCUGUGCUACACAUCGUAUGUACCGAAUCGGCGGCGGGCGGGGAAAGUAUUAUGUUACGCCGUUCGGAUCUGCACUUCCAG | -0.322 |
| CCUGUGCUACACAUCGUAUGUACCGAAUCGGGGCCCCCCCGGCCCCCCCGGCCCCCCCGGAAAGUAUUAUGUUACGCCGUUCGGAUCUGC | -1.36 |
| CAAGUCCUGUGCUACACAUCGUAUGUACCGAAUCAAACCCAAACCCAAAUUUAAAAAAGUAUUAUGUUACGCCGUUCGGAUCUGCACUUC | -0.8 |
| AGUCCUGUGCUACACAUCGUAUGUACCGAAUCGGGUUUUUGGGUGGGAAAAAAAGGGAAAGUAUUAUGUUACGCCGUUCGGAUCUGCACU | -0.0921 |

Study 2 — method: competition protein-binding microarray; molecule type: double-stranded DNA, one strand shown; matrix: in vitro; tested at: 2 µM; added: Cbf1 competitor, 0.05 µM; direction: higher = stronger binding; constant ends, left off below: … GTCTTGATTCGCTTGACGCTGCTG
Target: Phosphate system positive regulatory protein PHO4, full length, GST-tagged (PHO4, Saccharomyces cerevisiae, UniProt P07270, residues 1-312)
Notes: whole 60-bp probe, lowest competitor level
Residues (chain): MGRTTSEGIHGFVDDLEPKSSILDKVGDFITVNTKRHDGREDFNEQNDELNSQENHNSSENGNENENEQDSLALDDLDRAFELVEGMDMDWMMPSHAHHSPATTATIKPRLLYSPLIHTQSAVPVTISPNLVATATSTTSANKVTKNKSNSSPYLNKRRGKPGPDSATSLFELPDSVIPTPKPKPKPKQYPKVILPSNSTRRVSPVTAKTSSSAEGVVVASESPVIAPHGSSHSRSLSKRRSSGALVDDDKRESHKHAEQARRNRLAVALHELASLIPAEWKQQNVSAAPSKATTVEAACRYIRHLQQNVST
| Oligonucleotide | fluorescence intensity |
| --- | --- |
| AATCCAAGTTTCGGCCACGATGGCAGCAGCCTATTG | 9380 a.u. |
| TGCGCAACAACTTGTCACCGTACTTTATGTCTAGAA | 3270 a.u. |
| GGTTTACCGGAATGTCAGGTGATAGCAGCGGAGGGT | 4040 a.u. |
| AAATTACCGCCTTGACTCGTGAAACTGGATAATTCG | 4110 a.u. |
| TCCACCTTTGAAAACGGTGTGACGAAGCCCTTTCGA | 4060 a.u. |
| AAAGCGGTAATTTGCTGTGTGGGTGCAGATATCTAT | 4930 a.u. |
| AAATTACTAAGTTGATGAGTGGGTGACGCCGTATGA | 4240 a.u. |
| AACCAGGGCAATTCATCCGTGACGGCGAATGTTTTG | 3760 a.u. |

Single results of other studies
P1: viral docking peptide; TSVRRALFTGGSD; partner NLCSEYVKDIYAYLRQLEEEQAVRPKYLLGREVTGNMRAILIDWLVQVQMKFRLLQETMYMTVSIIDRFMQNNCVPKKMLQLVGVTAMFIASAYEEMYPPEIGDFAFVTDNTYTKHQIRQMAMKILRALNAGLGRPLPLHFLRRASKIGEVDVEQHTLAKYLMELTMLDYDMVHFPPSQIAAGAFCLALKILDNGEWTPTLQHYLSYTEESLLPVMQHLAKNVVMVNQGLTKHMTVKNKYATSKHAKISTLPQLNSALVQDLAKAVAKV
P2: PafA, mature enzyme, eGFP fusion (Elizabethkingia meningoseptica, UniProt Q9KJX5); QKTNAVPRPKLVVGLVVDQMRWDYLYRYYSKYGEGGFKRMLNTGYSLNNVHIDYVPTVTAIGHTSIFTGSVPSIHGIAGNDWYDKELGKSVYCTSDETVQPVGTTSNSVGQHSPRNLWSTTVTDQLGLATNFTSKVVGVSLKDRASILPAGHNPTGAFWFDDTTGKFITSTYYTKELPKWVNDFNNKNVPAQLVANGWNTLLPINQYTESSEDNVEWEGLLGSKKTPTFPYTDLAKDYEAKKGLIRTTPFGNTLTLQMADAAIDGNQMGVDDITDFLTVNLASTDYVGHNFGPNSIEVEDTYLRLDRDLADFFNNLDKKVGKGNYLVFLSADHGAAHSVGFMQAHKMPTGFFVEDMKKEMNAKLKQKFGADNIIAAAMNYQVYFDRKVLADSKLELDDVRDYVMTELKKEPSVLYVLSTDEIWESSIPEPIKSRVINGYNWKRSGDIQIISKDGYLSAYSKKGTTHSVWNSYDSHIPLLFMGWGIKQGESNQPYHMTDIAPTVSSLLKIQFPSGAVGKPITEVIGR
| Molecule | target | assay | test system | setting | scale | measurement | value |
| --- | --- | --- | --- | --- | --- | --- | --- |
| PhoQ, residues 284 288 289 292 302 303 SCEHLI | PhoP, residues 12 14 15 18 19 TTLRV (Escherichia coli, UniProt P23836) | Sort-seq, refers to: YFP reporter | E. coli | PhoQ-PhoP variant library, added: 10 µM Mg2+ | baseline: high Mg2+ state, higher = stronger signaling | fold induction | 7.91 |
| P1 A6G | CCNB1, cyclin fold, Cln2 fusion (human) | yeast growth competition, sequencing | yeast | strong parent motif | baseline: not given, higher = stronger binding | normalised enrichment score | 0.806 |
| P2 N315G | tungstate, free oxyanion | microfluidic competitive inhibition | in vitro, cell-free expressed | not given, derived from inhibition constants, unchanged parent 2230 nM | lower = stronger binding | oxyanion analog dissociation constant | 2120 nM |

Excerpt of the above (single results of other studies):
| Molecule | target | assay | test system | setting | scale | measurement | value |
| --- | --- | --- | --- | --- | --- | --- | --- |
| P1 A6G | CCNB1, cyclin fold, Cln2 fusion (human) | yeast growth competition, sequencing | yeast | strong parent motif | baseline: not given, higher = stronger binding | normalised enrichment score | 0.806 |
